# Measured values collected from several papers.
# Parts stem from different laboratories: compare values within a part only. Substitutions count along the parent as printed.

# Sample 1
# Target: RNA binding protein fox-1 homolog 2, RRM domain, GST-SBP tag (RBFOX2, Homo sapiens, UniProt O43251-10, residues 100-194)
# Technique: RNA Bind-n-Seq
# Form: RNA
# Matrix: in vitro
# Concentration: 365 nM
# Notes: natural RNA segment, single round, ends assumed
# Relative to: no-protein control
# Direction: higher = stronger binding
# All sequences stand within: GGGAGUUCUACAGUCCGACGAUC … UGGAAUUCUCGGGUGCCAA
# Target sequence (chain): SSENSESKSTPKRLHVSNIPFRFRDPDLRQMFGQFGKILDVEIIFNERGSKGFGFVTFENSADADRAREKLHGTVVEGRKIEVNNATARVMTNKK
Sequence,RBNS enrichment (R)
AACCUCUUCAUUCCUAAUUCCUCCAAGGUACUAUUUCAUAGUUGCUCUGAAUUAAGGAUUUCAGGUUUAACUGGUAGUGAAAGACUGCACCUAGCAUCUUCGGGAAGAAA,0.262
GGACCUGACCUGGCUCAUGAUGCCAAGAGGAAGACAGAGCUCUAGCCUCGUCUUCUCCUGCCCACAGCCCCUGCCAGAGUUCUUUUGCCCAGCAGAGGCACCCCUCAUGA,0.349
CAUAUAUGGCAGCAUUCAGCUCUCACCCAACACUUGUGCUGGGCUUCCCUUCAGCAGCCUCCCAGACCUCCCCAUUCUUCCAGGAUGCUGUCUGCCAGGUCACCACUCUG,0.43
UUGUUGCUGUGCCAACAUCCUAGAUUGUACUUACACAACCUACAUGGUAUAGCCUACUACACACCUGGGCUGUGUGGCAUGGCCUAUUCCUCUUAGGCUACAAACCUGUA,0.273
ACAGAGUGUUGUCUACAAAGUGCAAGUGUGUUAAUGUUUAUGUAAAUUAUGCAGGUGAUAACUUUAUGGUUUGGGACUGUUUAUGGGCUCUUUUAAGUGAAUUUUCAAAU,5.47
AACUGGAAACCUGUCUCUCUCUGUUUGUGGACAAAUGAGAGGUUUCAGAUGCAGUGAGGAGCACUGAGUCCUUUGCAAUGUUUUCAGCCAUAGACCUUUGGGUCUGCCUG,0.454
UCUCUAGCUCACUGGCUCUGUGGGCUUGGGCUCUGCCCCUACAACGGCUCUCAGAAGCAUUCACACGCACAGAUGUGCAACCUCAGCCAGAAGUUGAAGCUCUUUAAGCC,0.252
UGGGCAGCGAUAGAGGCCAAGUAUCUUGUGGGCACUCCUGCCUAACCCUGCAUUGGGAUAUCGAAGCACUGCUUAGGUUCUGAGGUGUGGGUUCCCUGCCACCCAGGCAA,0.173
UAGUGUCCCAGUACAAAAAGGCUGUAAGAUAGUCAACCACAGUAGUCACCUAUGUCUGUGCCUCCCUUCUUUAUUGGGGACAUGUGGGCUGGAACAGCAGAUUUCAGCUA,0.43
UGAGCAGAUGAGGCCACAGAAGCACAAGGGGAAGGUGCCGUGUCAAGCCCAGGCAGACGAGACCUCUGCCCUGAAGACCAACACCAGCCCGUGGGCUGCCCCCUGCCUCC,0.302
AUUCUUGCCUAUUAACAUCUGAUGUAAGGCGCUCAUAUAGGCUGUGUGUACAAUCUUGGGCACUGAUUCCAUCAGUAGUAUCUUGUACCAUCCAAGGAGAGGGCCAGGAA,0.255
CCUCCCUCCUCAUCUUGCCGUCCCACUGGGGUGCUAGGAAAUCCAGGAUGACGGCUGCUCUGAUAUGGUGCUCUUCUGAGGUGGCAUAAGGGCUGGCCCUUAUUUGCUCU,0.679

# Sample 2
# Target: Sal-like protein 4, full length isoform A (SALL4, Homo sapiens, UniProt Q9UJQ4, residues 1-1053)
# Chain of UniProt Q9UJQ4 (whole entry, looked up): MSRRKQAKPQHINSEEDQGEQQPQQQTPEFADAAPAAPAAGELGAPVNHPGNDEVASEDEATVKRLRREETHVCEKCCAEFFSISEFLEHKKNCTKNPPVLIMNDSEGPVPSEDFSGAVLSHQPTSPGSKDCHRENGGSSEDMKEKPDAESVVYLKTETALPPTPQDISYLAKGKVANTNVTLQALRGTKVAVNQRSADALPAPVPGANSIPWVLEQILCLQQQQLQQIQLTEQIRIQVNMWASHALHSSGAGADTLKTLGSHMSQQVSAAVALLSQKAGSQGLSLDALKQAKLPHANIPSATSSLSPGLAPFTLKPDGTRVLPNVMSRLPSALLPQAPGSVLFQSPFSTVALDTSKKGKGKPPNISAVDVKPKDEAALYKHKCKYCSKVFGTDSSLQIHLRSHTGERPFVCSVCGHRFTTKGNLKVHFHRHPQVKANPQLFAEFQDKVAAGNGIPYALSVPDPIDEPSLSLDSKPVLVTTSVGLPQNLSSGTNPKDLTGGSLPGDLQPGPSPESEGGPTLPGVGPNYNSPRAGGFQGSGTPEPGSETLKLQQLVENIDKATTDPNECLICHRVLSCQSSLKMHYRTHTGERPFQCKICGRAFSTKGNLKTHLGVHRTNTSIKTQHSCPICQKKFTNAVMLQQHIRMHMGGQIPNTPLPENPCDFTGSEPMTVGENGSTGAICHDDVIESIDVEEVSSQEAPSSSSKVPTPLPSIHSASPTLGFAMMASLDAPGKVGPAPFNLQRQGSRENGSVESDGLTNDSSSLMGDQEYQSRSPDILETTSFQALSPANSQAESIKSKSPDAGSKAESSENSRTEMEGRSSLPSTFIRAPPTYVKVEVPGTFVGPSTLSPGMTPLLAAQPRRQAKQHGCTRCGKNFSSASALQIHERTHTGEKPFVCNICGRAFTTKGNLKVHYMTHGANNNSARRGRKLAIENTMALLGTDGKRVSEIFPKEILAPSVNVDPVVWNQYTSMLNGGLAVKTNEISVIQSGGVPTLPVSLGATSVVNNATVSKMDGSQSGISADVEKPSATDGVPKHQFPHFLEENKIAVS
# Technique: universal PBM
# Form: double-stranded DNA, one strand shown
# Matrix: in vitro
# Concentration: 600 nM
# Notes: 8-mer, flanks averaged, mean of replicates
# Direction: higher = stronger binding
Sequence,E-score
CATGTCAG,-0.0581
ACTCATGA,0.178
ACGGGTCT,-0.306
AAAGATTT,0.196
GCGAATGA,0.171
AATGGGCT,-0.121
ACACACGT,0.0336
CGACAGAC,-0.232
AAAGTCAT,0.17
AGGATGAA,0.0716
ACGGAAGC,-0.171
ACCGAGAT,0.0246
ACCCAACA,-0.194
ACTACACC,-0.0268
ATTGCGAC,0.0541
GCTTTAAA,0.105
GCGTGAAA,0.0914
AACCCTTG,-0.184
CAACGCGA,-0.294
CAGCCAAA,0.0372
CCGCTCAC,-0.338
CAAGCTTG,-0.00673

# Sample 3
# Target: Phosphate system positive regulatory protein PHO4, full length, GST-tagged (PHO4, Saccharomyces cerevisiae, UniProt P07270, residues 1-312)
# Technique: competition protein-binding microarray
# Form: double-stranded DNA, one strand shown
# Matrix: in vitro
# Concentration: 2 µM
# Notes: whole 60-bp probe, lowest competitor level
# Together with: Cbf1 competitor, 0.05 µM
# Direction: higher = stronger binding
# All sequences stand within: … GTCTTGATTCGCTTGACGCTGCTG
# Target sequence (chain): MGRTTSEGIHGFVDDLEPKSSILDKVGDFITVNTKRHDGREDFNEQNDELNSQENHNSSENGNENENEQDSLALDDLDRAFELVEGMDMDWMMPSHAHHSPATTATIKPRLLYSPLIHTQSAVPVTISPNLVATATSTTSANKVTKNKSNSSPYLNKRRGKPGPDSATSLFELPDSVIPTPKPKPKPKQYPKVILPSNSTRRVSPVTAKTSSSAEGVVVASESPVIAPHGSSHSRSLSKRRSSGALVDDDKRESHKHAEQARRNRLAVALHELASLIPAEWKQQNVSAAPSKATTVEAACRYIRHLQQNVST
Sequence,fluorescence intensity [a.u.]
CCTGGACGCATTCAACACGCTGCTCGAGCGGCTGCT,6240
CGGGGTTAAGTTTGTCACCAGACTTGCTTGCAGCAG,3630
GATCAGCATATCCGTCACGTTCTGCTCATCGGGACT,12800
TGCAATAAGAAAACACACGTTAAATTACACTCAGGG,6360
CTTCTATGACCTCTTCACGTGGCCGAATGTTCTGTT,15000
AAGTTTGTAATTTTCCTCGTGTCCATAGTGGAAGAT,10100
CGGGGTTAAGTTTGCCGGGTGGGTGGCTTGCAGCAG,5300
CTCCGAAAAGAATAGCATGTGCAAGATGAGTTACCG,11400
CTTCTGTAAATTTGTCACGCGACTTGACGCGCCCCG,7640
AATCGCTCATTATCTTCGCTGCCATTTTCACCCTGA,3170
CTAACGAAGGTTTGGGGTGTGGGTGACAAGCCAAGT,6090
CTTGGTATCAATTTCTTCGTGCTTTGCTTGGTTGAA,4480
CTTCTGTAAATTTGGTTAGTGGGTGGACGCGCCCCG,4420
AAAGCGGTAATTTGGTAGGTGGGTGCAGATATCTAT,4600
CGGGGTTAAGTTTGCTAAGTGGGTGGCTTGCAGCAG,4970
AAAGCGGTAATTTTTCACGTGCAATCAAATATCTAT,13100

# Sample 4
# Target: Interferon regulatory factor 5, full length, phosphomimetic (IRF5, Homo sapiens, UniProt Q13568-2, residues 1-514, K96S/S451D/S453D/S456D/S462D)
# Technique: protein-binding microarray
# Form: double-stranded DNA, one strand shown
# Matrix: in vitro
# Concentration: 250 nM
# Notes: 60-bp whole probe
# Together with: salmon DNA 0.4 mg/ml
# Relative to: random background probes
# Direction: higher = stronger binding
# All sequences stand within: GCCTAGCAC … GTCTTGATTCGCTTGACGCTGCTG
Sequence,log fluorescence [z-score]
TTAGAACTGGGCACTGGATTAGTGCTA,-0.726
GAGATGATCCAGTTTTACCTGGTGCTA,-0.0706
TTAGAACTGAGTCTCGATCAGTGCTAG,0.424
ATAGGTCTCGGACTGGGTTAGTGCTAG,-0.0283
TCATGTCTGTAGCTCATACTGTGCTAG,-0.168
TTAGTTCTCAGTATCGATTAGTGCTAG,6.8
GACGTTATCAGTTTCGAGACGTGCTAG,6.27
TACGAACTGGGGACTGGAGACGTGCTA,-0.247
TCACTTTTCTGTTGTCTGACTGTGCTA,2.03
TCAACTCGCCTTTTTTGACTGTGCTAG,0.207
GACGGCATCCTTATCCTGACGTGCTAG,-0.366
TTAGGGTTCCTTATCCTTTAGTGCTAG,-0.33
GACAGTCTCGGTATCGGGACGTGCTAG,2.03
GACGATATCAGTCCCGAGACGTGCTAG,0.792
GACGGGATCGACACTGGGGACGTGCTA,-0.28
GAAGCTTCTTTTTTATTCTAGTGCTAG,0.76

# Sample 5
# Target: ABI1, truncated, D143A, DHFR fusion (Arabidopsis thaliana)
# Technique: DHFR PCA, deep sequencing
# Matrix: yeast
# Notes: methotrexate growth selection, single substitutions
# Together with: (+)-ABA 0.11 µM
# Relative to: wild-type fitted maximum
# Direction: higher = stronger binding
# Parent: PYL1, truncated, DHFR fusion (Arabidopsis thaliana); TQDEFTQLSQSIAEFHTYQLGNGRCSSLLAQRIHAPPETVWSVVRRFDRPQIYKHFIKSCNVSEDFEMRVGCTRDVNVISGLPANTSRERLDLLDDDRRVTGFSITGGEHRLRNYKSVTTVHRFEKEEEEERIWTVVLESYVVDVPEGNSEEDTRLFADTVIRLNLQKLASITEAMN
Change,relative binding score
E131N,60.4%
E152C,2.2%
V44Q,-2.37%
Q19Y,4.92%
C72T,10%
S117Q,1.88%
G21H,20.5%
T119Y,-0.677%
C60Q,-2.86%
F15L,2.97%
T106N,-5.95%
G81D,4.23%
E139A,10.1%
V137M,-7.51%
R49M,23.3%

# Some of these lines once more (sample 1):
Sequence,RBNS enrichment (R)
AACUGGAAACCUGUCUCUCUCUGUUUGUGGACAAAUGAGAGGUUUCAGAUGCAGUGAGGAGCACUGAGUCCUUUGCAAUGUUUUCAGCCAUAGACCUUUGGGUCUGCCUG,0.454
UCUCUAGCUCACUGGCUCUGUGGGCUUGGGCUCUGCCCCUACAACGGCUCUCAGAAGCAUUCACACGCACAGAUGUGCAACCUCAGCCAGAAGUUGAAGCUCUUUAAGCC,0.252
UGGGCAGCGAUAGAGGCCAAGUAUCUUGUGGGCACUCCUGCCUAACCCUGCAUUGGGAUAUCGAAGCACUGCUUAGGUUCUGAGGUGUGGGUUCCCUGCCACCCAGGCAA,0.173
UAGUGUCCCAGUACAAAAAGGCUGUAAGAUAGUCAACCACAGUAGUCACCUAUGUCUGUGCCUCCCUUCUUUAUUGGGGACAUGUGGGCUGGAACAGCAGAUUUCAGCUA,0.43
UGAGCAGAUGAGGCCACAGAAGCACAAGGGGAAGGUGCCGUGUCAAGCCCAGGCAGACGAGACCUCUGCCCUGAAGACCAACACCAGCCCGUGGGCUGCCCCCUGCCUCC,0.302
